# Measured values of several laboratories.
# Each numbered part is a random draw from the data of one study; scales do not carry over between parts.
# UniProt Q13557, sequence (whole entry, looked up): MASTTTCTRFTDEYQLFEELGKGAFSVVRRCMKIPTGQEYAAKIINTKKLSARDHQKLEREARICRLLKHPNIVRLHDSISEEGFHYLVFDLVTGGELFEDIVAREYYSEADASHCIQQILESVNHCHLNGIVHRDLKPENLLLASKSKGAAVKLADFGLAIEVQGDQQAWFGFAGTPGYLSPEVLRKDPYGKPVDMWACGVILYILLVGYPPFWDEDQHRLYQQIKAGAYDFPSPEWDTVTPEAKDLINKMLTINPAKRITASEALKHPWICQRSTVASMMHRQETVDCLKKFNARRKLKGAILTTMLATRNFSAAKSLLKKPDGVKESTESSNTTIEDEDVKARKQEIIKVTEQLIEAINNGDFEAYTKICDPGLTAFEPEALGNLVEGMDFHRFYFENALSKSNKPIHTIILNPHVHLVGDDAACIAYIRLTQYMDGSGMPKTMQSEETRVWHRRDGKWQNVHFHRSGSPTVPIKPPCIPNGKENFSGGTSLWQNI
# UniProt Q03431, sequence (whole entry, looked up): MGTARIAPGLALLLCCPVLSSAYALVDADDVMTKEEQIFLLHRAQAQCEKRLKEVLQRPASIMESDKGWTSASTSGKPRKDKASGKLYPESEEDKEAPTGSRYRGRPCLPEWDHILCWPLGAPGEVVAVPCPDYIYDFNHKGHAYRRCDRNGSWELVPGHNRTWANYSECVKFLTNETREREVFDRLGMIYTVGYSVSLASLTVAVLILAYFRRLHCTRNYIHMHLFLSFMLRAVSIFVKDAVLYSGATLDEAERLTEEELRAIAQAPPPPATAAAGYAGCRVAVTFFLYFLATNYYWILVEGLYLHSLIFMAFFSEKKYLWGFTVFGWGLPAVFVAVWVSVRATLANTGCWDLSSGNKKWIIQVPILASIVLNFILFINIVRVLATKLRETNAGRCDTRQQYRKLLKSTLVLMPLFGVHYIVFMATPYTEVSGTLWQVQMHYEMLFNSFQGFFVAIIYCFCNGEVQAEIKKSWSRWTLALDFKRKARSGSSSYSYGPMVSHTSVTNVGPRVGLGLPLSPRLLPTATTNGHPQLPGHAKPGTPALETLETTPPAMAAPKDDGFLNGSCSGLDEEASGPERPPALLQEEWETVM
# UniProt O95835, sequence (whole entry, looked up): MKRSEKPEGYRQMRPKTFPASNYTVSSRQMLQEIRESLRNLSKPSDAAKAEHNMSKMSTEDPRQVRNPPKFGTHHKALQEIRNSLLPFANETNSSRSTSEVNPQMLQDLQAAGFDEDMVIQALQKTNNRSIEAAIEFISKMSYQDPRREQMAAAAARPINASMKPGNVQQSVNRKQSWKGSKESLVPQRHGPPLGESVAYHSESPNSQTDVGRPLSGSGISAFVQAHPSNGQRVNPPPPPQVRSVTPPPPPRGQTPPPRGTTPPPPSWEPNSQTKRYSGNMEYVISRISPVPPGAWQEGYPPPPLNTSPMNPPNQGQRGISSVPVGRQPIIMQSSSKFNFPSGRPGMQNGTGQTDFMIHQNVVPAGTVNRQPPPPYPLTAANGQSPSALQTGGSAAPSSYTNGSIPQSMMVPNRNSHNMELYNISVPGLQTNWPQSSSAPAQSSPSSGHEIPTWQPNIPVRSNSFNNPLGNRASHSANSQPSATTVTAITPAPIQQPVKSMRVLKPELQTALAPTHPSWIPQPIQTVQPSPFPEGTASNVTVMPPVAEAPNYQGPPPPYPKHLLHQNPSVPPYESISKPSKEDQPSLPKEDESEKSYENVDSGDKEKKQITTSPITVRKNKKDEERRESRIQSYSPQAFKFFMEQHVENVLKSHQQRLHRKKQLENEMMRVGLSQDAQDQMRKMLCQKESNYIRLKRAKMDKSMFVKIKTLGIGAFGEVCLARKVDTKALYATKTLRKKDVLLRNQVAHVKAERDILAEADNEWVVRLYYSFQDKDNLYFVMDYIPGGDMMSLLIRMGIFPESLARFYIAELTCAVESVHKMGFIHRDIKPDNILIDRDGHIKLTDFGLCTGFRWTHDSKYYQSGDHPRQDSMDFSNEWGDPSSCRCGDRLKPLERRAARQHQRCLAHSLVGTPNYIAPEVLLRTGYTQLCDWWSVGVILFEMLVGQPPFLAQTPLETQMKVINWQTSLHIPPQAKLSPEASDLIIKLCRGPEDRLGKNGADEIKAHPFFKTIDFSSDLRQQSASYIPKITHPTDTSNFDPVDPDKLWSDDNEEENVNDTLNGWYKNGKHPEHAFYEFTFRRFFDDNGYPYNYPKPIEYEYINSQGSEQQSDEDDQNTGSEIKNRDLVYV
# UniProt P19784, sequence (whole entry, looked up): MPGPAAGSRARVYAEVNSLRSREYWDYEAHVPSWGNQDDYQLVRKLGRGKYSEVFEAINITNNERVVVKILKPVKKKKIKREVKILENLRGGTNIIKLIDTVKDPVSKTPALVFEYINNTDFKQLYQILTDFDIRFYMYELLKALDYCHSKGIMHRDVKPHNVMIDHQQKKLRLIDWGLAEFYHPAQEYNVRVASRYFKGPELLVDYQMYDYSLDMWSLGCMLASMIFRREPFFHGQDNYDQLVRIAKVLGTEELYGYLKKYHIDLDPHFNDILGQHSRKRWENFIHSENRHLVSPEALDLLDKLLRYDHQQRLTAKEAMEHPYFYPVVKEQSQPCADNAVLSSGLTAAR
# UniProt P30559, sequence (whole entry, looked up): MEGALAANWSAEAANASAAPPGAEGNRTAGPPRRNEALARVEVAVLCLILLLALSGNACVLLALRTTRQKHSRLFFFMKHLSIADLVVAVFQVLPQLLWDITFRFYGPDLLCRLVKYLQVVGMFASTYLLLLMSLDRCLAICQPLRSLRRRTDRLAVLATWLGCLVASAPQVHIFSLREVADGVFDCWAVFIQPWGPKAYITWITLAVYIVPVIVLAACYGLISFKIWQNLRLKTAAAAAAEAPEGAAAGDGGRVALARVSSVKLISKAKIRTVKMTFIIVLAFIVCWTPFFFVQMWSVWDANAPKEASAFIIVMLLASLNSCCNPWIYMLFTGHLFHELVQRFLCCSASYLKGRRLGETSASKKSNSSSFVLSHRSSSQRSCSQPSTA
# UniProt P30411, sequence (whole entry, looked up): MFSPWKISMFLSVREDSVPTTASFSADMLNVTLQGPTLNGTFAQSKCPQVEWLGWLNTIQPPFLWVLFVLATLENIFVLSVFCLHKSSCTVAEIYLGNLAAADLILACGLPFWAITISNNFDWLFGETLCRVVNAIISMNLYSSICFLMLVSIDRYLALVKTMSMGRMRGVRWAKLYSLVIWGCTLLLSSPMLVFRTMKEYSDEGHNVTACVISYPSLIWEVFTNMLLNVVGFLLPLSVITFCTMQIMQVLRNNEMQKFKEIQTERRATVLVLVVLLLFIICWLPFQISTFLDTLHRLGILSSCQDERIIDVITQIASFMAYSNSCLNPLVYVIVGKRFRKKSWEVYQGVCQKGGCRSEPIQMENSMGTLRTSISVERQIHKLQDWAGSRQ
# UniProt P41146, sequence (whole entry, looked up): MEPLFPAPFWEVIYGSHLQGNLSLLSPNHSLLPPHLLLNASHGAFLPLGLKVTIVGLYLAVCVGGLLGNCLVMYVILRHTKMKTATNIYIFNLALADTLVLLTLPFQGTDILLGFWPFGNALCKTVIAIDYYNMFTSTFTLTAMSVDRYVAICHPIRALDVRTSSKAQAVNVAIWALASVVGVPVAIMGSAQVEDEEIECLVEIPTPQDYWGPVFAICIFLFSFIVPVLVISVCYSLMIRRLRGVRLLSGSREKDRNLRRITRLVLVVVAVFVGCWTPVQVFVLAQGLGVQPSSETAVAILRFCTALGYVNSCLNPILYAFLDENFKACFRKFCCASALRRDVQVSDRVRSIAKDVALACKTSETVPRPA

# Block 1 — read-out: kinase activity; action: inhibitor; tested at: 1 µM
# SMILES: CC(C)S(=O)(=O)c1ccc2nccc(Nc3ccc4sc(C5CCCC5)nc4c3)c2c1.Cl
target,remaining activity [%]
"PIP5K1A (Homo sapiens, UniProt Q99755)",101
"MINK1 (Homo sapiens, UniProt Q8N4C8)",95
"TEC (Homo sapiens, UniProt P42680)",102
"CAMK2D (Homo sapiens, UniProt Q13557)",85
"PRKG1 (Homo sapiens, UniProt Q13976)",106
"MAPK10 (Homo sapiens, UniProt P53779)",98
"CSNK2A2 (Homo sapiens, UniProt P19784)",95

# Block 2 — read-out: β-arrestin recruitment; action: agonist; technique: PRESTO-Tango; tested at: 10 µM; baseline: untreated
# Structure (SMILES): N=C(N)NC(=O)c1cnn(-c2cccc3ncccc23)c1C1CC1
target,fold over basal
"Oxytocin receptor (OXTR, Homo sapiens, UniProt P30559)",0.66
"BDKRB2 (Homo sapiens, UniProt P30411)",1.11
"Nociceptin receptor (OPRL1, Homo sapiens, UniProt P41146)",0.82
"HCRTR1 (Homo sapiens, UniProt O43613)",0.8 fold
"HTR1F (Homo sapiens, UniProt P30939)",0.75
"PTGER3 (Homo sapiens, UniProt P43115)",1.13
"PTH1R (Homo sapiens, UniProt Q03431)",0.92

# Block 3 — SMILES: CC(C)(O)c1cncc(-c2nc3ccc(F)cc3n2C2CC2)c1; read-out: cell-free assay; technique: competition with immobilised ligand; tested at: 1 µM
target,remaining binding [%]
"Tyrosine-protein kinase ABL1, non-phosphorylated (ABL1, Homo sapiens, UniProt P00519, T315I)",100
"STK24 (Homo sapiens, UniProt Q9Y6E0)",100
"LATS1 (Homo sapiens, UniProt O95835)",82
"MAP4K1 (Homo sapiens, UniProt Q92918)",99
"SYK (Homo sapiens, UniProt P43405)",100
"RIPK2 (Homo sapiens, UniProt O43353)",100
"PRKACA (Homo sapiens, UniProt P17612)",100
"MAPK6 (Homo sapiens, UniProt Q16659)",100

# Block 4 — read-out: enzyme activity; action: inhibitor; tested at: 0.5 µM; baseline: control
# Target: Focal adhesion kinase 1 (PTK2, Homo sapiens, UniProt Q05397)
# UniProt Q05397, sequence (whole entry, looked up): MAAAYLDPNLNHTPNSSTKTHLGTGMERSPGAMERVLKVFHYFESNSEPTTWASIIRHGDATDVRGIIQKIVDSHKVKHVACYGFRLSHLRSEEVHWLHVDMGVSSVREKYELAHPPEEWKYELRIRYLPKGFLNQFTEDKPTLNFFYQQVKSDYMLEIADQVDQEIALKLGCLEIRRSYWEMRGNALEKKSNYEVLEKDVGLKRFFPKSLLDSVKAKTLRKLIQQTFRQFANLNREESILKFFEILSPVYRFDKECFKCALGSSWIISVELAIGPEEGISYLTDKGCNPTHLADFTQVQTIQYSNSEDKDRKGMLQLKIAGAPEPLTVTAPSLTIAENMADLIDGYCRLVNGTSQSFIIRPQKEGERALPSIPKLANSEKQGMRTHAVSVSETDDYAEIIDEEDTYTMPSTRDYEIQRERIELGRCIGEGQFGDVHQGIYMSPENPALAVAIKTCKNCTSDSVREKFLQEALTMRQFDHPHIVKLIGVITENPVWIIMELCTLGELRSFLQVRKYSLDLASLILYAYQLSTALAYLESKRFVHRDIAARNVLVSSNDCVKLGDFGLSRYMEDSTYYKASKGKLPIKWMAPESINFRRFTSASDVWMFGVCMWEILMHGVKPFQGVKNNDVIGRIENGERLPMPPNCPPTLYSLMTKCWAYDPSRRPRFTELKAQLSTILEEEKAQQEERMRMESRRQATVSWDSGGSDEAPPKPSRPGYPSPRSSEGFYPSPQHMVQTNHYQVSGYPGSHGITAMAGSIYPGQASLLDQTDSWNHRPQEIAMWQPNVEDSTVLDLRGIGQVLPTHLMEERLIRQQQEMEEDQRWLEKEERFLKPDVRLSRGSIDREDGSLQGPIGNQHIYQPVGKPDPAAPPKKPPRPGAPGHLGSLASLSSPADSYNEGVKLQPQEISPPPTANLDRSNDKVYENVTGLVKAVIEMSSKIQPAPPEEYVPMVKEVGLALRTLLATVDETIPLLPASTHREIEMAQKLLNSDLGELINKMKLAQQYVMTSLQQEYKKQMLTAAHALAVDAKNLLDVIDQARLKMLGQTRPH
SMILES,remaining activity [%]
Cc1cccc(-c2[nH]c(C(C)(C)C)nc2-c2ccc3c(c2)OCO3)n1,98.1
Nc1ccc2ncnc(NCCc3ccc(Oc4ccccc4)cc3)c2c1,98.6
COc1cc2ncnc(Nc3ccc(Oc4ccccc4)cc3)c2cc1OC,98.1
N#CC(C#N)=C(N)/C(C#N)=C/c1ccc(O)cc1,98.5
COc1ccc(C(=O)Nc2sc3c(c2C(N)=O)CCCC3)cc1OC,116
O=c1c2ccccc2[nH]c(=S)n1CCN1CCC(=C(c2ccc(F)cc2)c2ccc(F)cc2)CC1,105
Oc1ccc(-c2nc(-c3ccncc3)c(-c3ccc(F)cc3)[nH]2)cc1,96.9
COc1cc2nccc(Oc3ccc(NC(=S)NC(=O)c4ccccc4C)cc3)c2cc1OC,90.7
Nc1[nH]nc2nc3ccccc3nc12,94.7
COc1cc2ncnc(Nc3ccc(F)c(Cl)c3)c2cc1OCCCN1CCOCC1,103
O=C(Nc1cccc(Nc2cc(Nc3cccc(C(F)(F)F)c3)ncn2)c1)C1CC1,105
Cn1sc(=O)n(Cc2ccccc2)c1=O,99.5
O=C1NC(=O)C(c2cn(CCCn3ccnc3)c3ccccc23)=C1Nc1ccccc1,104
Cc1ccc(NC(=O)c2ccc(CN3CCN(C)CC3)cc2)cc1Nc1nc(-c2cccnc2)cs1,98.6
Cn1c2ccccc2c2c3c(c4c5ccccc5n(CCC#N)c4c21)CNC3=O,77
O=C1NC(=O)C(c2cn(CCCO)c3ncccc23)=C1c1cnccn1,101

# Repeated from above (block 4):
SMILES,remaining activity [%]
Nc1[nH]nc2nc3ccccc3nc12,94.7
COc1cc2ncnc(Nc3ccc(F)c(Cl)c3)c2cc1OCCCN1CCOCC1,103
O=C(Nc1cccc(Nc2cc(Nc3cccc(C(F)(F)F)c3)ncn2)c1)C1CC1,105
Cn1sc(=O)n(Cc2ccccc2)c1=O,99.5
